{"data": "Experimental data collected from several papers", "UCHL1": "Ubiquitin carboxyl-terminal hydrolase isozyme L1 (UCHL1, Homo sapiens, UniProt P09936)", "note": "Compare with care: the assays were run in different laboratories. Several values in a cell are separate wells, animals, samples, runs or records.", "UniProt P09936, sequence (whole entry, looked up)": "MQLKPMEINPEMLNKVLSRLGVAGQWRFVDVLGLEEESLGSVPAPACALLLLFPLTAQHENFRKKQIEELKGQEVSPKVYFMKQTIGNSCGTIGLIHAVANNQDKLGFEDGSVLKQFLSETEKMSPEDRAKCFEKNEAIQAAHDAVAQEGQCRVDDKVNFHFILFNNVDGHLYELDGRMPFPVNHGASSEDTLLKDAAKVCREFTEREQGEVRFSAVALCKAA"}
{"Compound": "O=C(CCl)N1CCCCc2ccc([N+](=O)[O-])cc21", "tested on": "UCHL1", "assay": "covalent, intact protein LC-MS", "conditions": "12.5 µM", "measurement": "labelling", "value": "12%"}
{"Compound": "C#C[C@@]1(O)[C@@H](CO)O[C@@H](n2ccc3c(N)ncnc32)[C@@H]1O", "tested on": "HCC 2998", "assay": "SRB", "conditions": "NCI-60 screen", "measurement": "TGI", "value": "3.12 µM"}
{"Compound": "O=C(Nc1nnc2[nH]c(=S)[nH]c(-c3ccc(Cl)cc3)c1-2)c1ccccc1", "tested on": "HCC 2998", "assay": "SRB", "conditions": "10 µM, NCI60 single-dose screen, colon cancer", "how to read": "reference: untreated", "measurement": "cell growth", "value": "98.8%"}
{"Compound": "CCCCN1CCN(c2ccc3[nH]c(-c4ccc5[nH]c(-c6ccc(OCC)c(OCC)c6)nc5c4)nc3c2)CC1", "tested on": "HCC 2998", "assay": "SRB", "conditions": "10 µM, 48 h", "measurement": "growth percent", "value": "-80.4%"}
{"Compound": "Cc1n[nH]c2nc(-c3ccc(Cl)cc3)c3c(NC(=O)c4ccccc4)nnc-3n12", "tested on": "HCC 2998", "assay": "SRB", "conditions": "10 µM, NCI60 single-dose screen, colon cancer", "how to read": "reference: untreated", "measurement": "cell growth", "value": "115%"}
{"Compound": "CCCN1CCN(c2ccc3[nH]c(-c4ccc5[nH]c(-c6ccc(OCC)c(OCC)c6)nc5c4)nc3c2)CC1", "tested on": "HCC 2998", "assay": "SRB", "conditions": "10 µM, 48 h", "measurement": "growth percent", "value": "-79.5%"}
{"Compound": "Cc1cc(=O)[nH]c(=O)n1Cc1cn(-c2cc3ccccc3oc2=O)nn1", "tested on": "HCC 2998", "assay": "NCI60 single-dose screen", "conditions": "10 µM", "measurement": "growth percentage", "value": "106%"}
{"Compound": "O=C1NCCc2[nH]c(-c3ccncc3)cc21", "tested on": "HCC 2998", "assay": "MTS", "test system": "colon cancer", "measurement": "IC50", "value": "> 10 µM"}
{"Compound": "N#CC(=Cc1csc2ccccc12)C(=O)NCc1ccco1", "tested on": "UCHL1", "assay": "covalent, intact protein LC-MS", "conditions": "12.5 µM", "measurement": "labelling", "value": "14.2%"}
{"Compound": "Cc1cc(C)n(-c2nc(-c3ccc(Cl)cc3)c3c(NC(=O)c4ccccc4)nnc-3[nH]2)n1", "tested on": "HCC 2998", "assay": "SRB", "conditions": "10 µM, NCI60 single-dose screen, colon cancer", "how to read": "reference: untreated", "measurement": "cell growth", "value": "93%"}
{"Compound": "CCCN1CCN(c2ccc3[nH]c(-c4ccc5[nH]c(-c6cc(OC)c(OC)c(OC)c6)nc5c4)nc3c2)CC1", "tested on": "HCC 2998", "assay": "SRB", "conditions": "10 µM, 48 h", "measurement": "growth percent", "value": "94.2%"}
{"Compound": "C#C[C@@]1(O)[C@@H](CO)O[C@@H](n2cc(Cl)c3c(N)ncnc32)[C@@H]1O", "tested on": "HCC 2998", "assay": "SRB", "conditions": "NCI-60 screen", "measurement": "TGI", "value": "0.501 µM and 0.565 µM"}
{"Compound": "CCCN1CCN(c2ccc3nc(-c4ccc5nc(-c6cc(OC)ccc6OC)[nH]c5c4)[nH]c3c2)CC1", "tested on": "HCC 2998", "assay": "SRB", "conditions": "10 µM, 48 h", "measurement": "growth percent", "value": "113%"}
{"Compound": "Cn1cncc1C1=CN(c2ncnc3[nH]cnc23)CCS1", "tested on": "HCC 2998", "conditions": "colon cancer", "measurement": "GI50", "value": "32.4 µM"}
{"Compound": "S=C([S][Au-][P+](CCCCCC[P+]([Au-][S]C(=S)n1cccn1)(c1ccccc1)c1ccccc1)(c1ccccc1)c1ccccc1)n1cccn1", "tested on": "HCC 2998", "assay": "cell growth, NCI-60 screen", "conditions": "colon cancer", "measurement": "log10 TGI", "value": -5.48}
{"Compound": "O=c1ccn(Cc2cn(-c3c4ccccc4nc4ccccc34)nn2)c(=O)[nH]1", "tested on": "HCC 2998", "assay": "NCI60 single-dose screen", "conditions": "10 µM", "measurement": "growth percentage", "value": "90.6%"}
{"Compound": "CCOC(=O)c1c(NC(=O)Cn2cnc([N+](=O)[O-])n2)sc2c1CCCC2", "tested on": "Trypanosoma cruzi", "assay": "reporter translation, Renilla luciferase mRNA translation", "test system": "cell-free extract", "conditions": "40 µM", "how to read": "reference: DMSO", "measurement": "inhibition", "value": "4.5%"}
{"Compound": "O=C1NC(c2ccccc2)(c2ccccc2)C(=O)N1Cc1cn(-c2c3ccccc3nc3ccccc23)nn1", "tested on": "HCC 2998", "assay": "NCI60 single-dose screen", "conditions": "10 µM", "measurement": "growth percentage", "value": "104%"}
{"Compound": "CCOC(=O)CSc1nc(-c2ccc(Cl)cc2)c2c(NC(=O)c3ccccc3)nnc-2[nH]1", "tested on": "HCC 2998", "assay": "SRB", "conditions": "10 µM, NCI60 single-dose screen, colon cancer", "how to read": "reference: untreated", "measurement": "cell growth", "value": "94.2%"}
{"Compound": "Cc1cc(=O)[nH]c(=O)n1Cc1cn(-c2c3ccccc3nc3ccccc23)nn1", "tested on": "HCC 2998", "assay": "NCI60 single-dose screen", "conditions": "10 µM", "measurement": "growth percentage", "value": "62.5%"}
{"Compound": "CCCCN1CCN(c2ccc3nc(-c4ccc5nc(-c6cc(OC)ccc6OC)[nH]c5c4)[nH]c3c2)CC1", "tested on": "HCC 2998", "assay": "SRB", "conditions": "10 µM, 48 h", "measurement": "growth percent", "value": "105%"}
{"Compound": "Cc1cc(=O)[nH]n1-c1nc(-c2ccc(Cl)cc2)c2c(NC(=O)c3ccccc3)nnc-2[nH]1", "tested on": "HCC 2998", "assay": "SRB", "conditions": "10 µM, NCI60 single-dose screen, colon cancer", "how to read": "reference: untreated", "measurement": "cell growth", "value": "113%"}
{"Compound": "CCCN1CCN(c2ccc3[nH]c(-c4ccc5[nH]c(-c6ccc(C(F)(F)F)cc6)nc5c4)nc3c2)CC1", "tested on": "HCC 2998", "assay": "SRB", "conditions": "10 µM, 48 h", "measurement": "growth percent", "value": "-89.8%"}
{"Compound": "Cc1cc(-c2ccccc2)n(-c2nc(-c3ccc(Cl)cc3)c3c(NC(=O)c4ccccc4)nnc-3[nH]2)n1", "tested on": "HCC 2998", "assay": "SRB", "conditions": "10 µM, NCI60 single-dose screen, colon cancer", "how to read": "reference: untreated", "measurement": "cell growth", "value": "103%"}
{"note": "Repeated from above:"}
{"Compound": "Cc1cc(-c2ccccc2)n(-c2nc(-c3ccc(Cl)cc3)c3c(NC(=O)c4ccccc4)nnc-3[nH]2)n1", "tested on": "HCC 2998", "assay": "SRB", "conditions": "10 µM, NCI60 single-dose screen, colon cancer", "how to read": "reference: untreated", "measurement": "cell growth", "value": "103%"}
